Published values from different studies.
A part holds a random share of what one study measured. Changes are numbered by the printed parent chain.

Study 1
Target: Histone acetyltransferase KAT6A, winged helix 1, GST fusion (KAT6A, Homo sapiens, UniProt Q92794, residues 1-85)
Method: protein binding microarray
Molecule type: double-stranded DNA, one strand shown
Medium: in vitro
Concentration: not given
Setting: 8-mer, flanks averaged, mean of 2 arrays, mostly near background
Reference: not given
Reading: higher = stronger binding
Construct (chain): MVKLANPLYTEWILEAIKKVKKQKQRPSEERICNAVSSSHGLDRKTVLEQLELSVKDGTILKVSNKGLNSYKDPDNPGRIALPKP
| Strand | E-score |
| --- | --- |
| GAATCAGC | -0.0779 |
| AACAGCGT | 0.054 |
| GGACCACC | -0.0486 |
| CGTAATAA | 0.105 |
| ATTTGTGC | -0.00879 |
| CGGTGTAG | 0.197 |
| AAGGTGGA | -0.188 |
| ACACGGAT | 0.202 |
| ACCAAGGT | -0.154 |
| AACGGATG | -0.0182 |
| GAATTCAC | -0.179 |
| CCAGTTGA | -0.175 |
| GCGATCCC | 0.192 |

Study 2
Target: ABI1, truncated, D143A, DHFR fusion (Arabidopsis thaliana)
Method: DHFR PCA, deep sequencing
Medium: yeast
Setting: methotrexate growth selection, single substitutions
With: (+)-ABA 4.8 µM
Reference: wild-type fitted maximum
Reading: higher = stronger binding
Parent: PYL1, truncated, DHFR fusion (Arabidopsis thaliana); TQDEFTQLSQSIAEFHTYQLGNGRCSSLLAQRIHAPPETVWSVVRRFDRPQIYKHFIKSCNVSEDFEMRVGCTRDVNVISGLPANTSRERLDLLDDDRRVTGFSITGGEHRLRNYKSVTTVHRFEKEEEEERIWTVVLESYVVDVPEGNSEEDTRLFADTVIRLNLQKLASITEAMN; partner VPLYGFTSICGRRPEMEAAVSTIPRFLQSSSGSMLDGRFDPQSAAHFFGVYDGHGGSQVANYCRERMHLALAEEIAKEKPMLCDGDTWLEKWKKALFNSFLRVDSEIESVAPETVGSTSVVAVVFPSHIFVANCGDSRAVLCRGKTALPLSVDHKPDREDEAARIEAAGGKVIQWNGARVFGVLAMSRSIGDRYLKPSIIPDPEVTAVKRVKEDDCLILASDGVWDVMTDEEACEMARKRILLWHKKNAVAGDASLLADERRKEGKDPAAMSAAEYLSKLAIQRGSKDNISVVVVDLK
| Change | relative binding score |
| --- | --- |
| V40H | 17.5% |
| V136T | 36.6% |
| A30I | 67.8% |
| S87P | 24.9% |
| I52H | 54.1% |
| D153R | -5.43% |
| N85Q | 85% |
| L112S | -6.76% |
| S117A | 31.6% |

Further values, each from its own experiment
| Substance | tested on | test | test system | setting | how to read | endpoint | result |
| --- | --- | --- | --- | --- | --- | --- | --- |
| CALR (Homo sapiens, UniProt P27797) | NFE2L3 (Homo sapiens, UniProt Q9Y4A8) | cross-linking MS | cell fractions | with: DHSO | – | cross-linked residues | E217 to E169 |
| PhoQ, residues 284 288 289 292 302 303 ASTSDA | PhoP, residues 12 14 15 18 19 LHHSG (Escherichia coli, UniProt P23836) | Sort-seq, item: YFP reporter | E. coli | PhoQ-PhoP variant library, with: 10 µM Mg2+ | reference: high Mg2+ state, higher = stronger signaling | fold induction | 13.2 |
| KTN1 (Homo sapiens, UniProt Q86UP2) | ARHGAP12 (Homo sapiens, UniProt Q8IWW6) | cross-linking MS | cell fractions | with: DMTMM | – | cross-linked residues | K477 to D606 |
| WDR43 (Homo sapiens, UniProt Q15061) | UTP18 (Homo sapiens, UniProt Q9Y5J1) | cross-linking MS | cell fractions | with: DSSO | – | cross-linked residues | K384 to K329 |
| NDUFS5 (Homo sapiens, UniProt O43920) | NDUFA8 (Homo sapiens, UniProt P51970) | cross-linking MS | cell fractions | with: DSSO | – | cross-linked residues | K101 to K14 |

For quick reference, copied from above (further values, each from its own experiment):
| Substance | tested on | test | test system | setting | how to read | endpoint | result |
| --- | --- | --- | --- | --- | --- | --- | --- |
| PhoQ, residues 284 288 289 292 302 303 ASTSDA | PhoP, residues 12 14 15 18 19 LHHSG (Escherichia coli, UniProt P23836) | Sort-seq, item: YFP reporter | E. coli | PhoQ-PhoP variant library, with: 10 µM Mg2+ | reference: high Mg2+ state, higher = stronger signaling | fold induction | 13.2 |
| KTN1 (Homo sapiens, UniProt Q86UP2) | ARHGAP12 (Homo sapiens, UniProt Q8IWW6) | cross-linking MS | cell fractions | with: DMTMM | – | cross-linked residues | K477 to D606 |
| WDR43 (Homo sapiens, UniProt Q15061) | UTP18 (Homo sapiens, UniProt Q9Y5J1) | cross-linking MS | cell fractions | with: DSSO | – | cross-linked residues | K384 to K329 |
